Published values collected from several papers.
Parts stem from different laboratories: compare values within a part only.

Set 1
Target: RNA binding protein fox-1 homolog 2, RRM domain, GST-SBP tag (RBFOX2, Homo sapiens, UniProt O43251-10, residues 100-194)
Technique: RNA Bind-n-Seq
Molecule type: RNA
Medium: in vitro
Concentration: 365 nM
Notes: natural RNA segment, single round, ends assumed
Baseline: no-protein control
Reading: higher = stronger binding
Constant ends, left off below: GGGAGUUCUACAGUCCGACGAUC … UGGAAUUCUCGGGUGCCAA
Construct (chain): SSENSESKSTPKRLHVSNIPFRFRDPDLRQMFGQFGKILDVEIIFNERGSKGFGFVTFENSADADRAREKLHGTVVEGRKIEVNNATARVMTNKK
| Strand | RBNS enrichment (R) |
| --- | --- |
| AGAGCAUCGAGGAUAGUAGCUUAAGGUUGCUGAGCUGGAAGCUGUGGGGGAAGAAGUGGAAACUAUGUCCAGUGAACUUUUCCAGUAAAUGAAGCAAGCACUAAAGUACU | 0.549 |
| AAAUCCCAUUCCAGUGUUACUUUCUGUGAAUGCAGUACCAUAUUCUCAUUUUCAAUGACAUUUCAACCACAGGCAGAAAAGACUGUUUACUCCUUGACCCAAAGAUUAAA | 0.272 |
| AUACGAGUGGUGAGAGAGGGCAUCCCUGUCUUGUGCCAGUUUUCAAAGGGAAUGCUUCCAGUUUUUGCCCAUUCAGUAUGAUAUUGGCUGUGGGUUUGUCAUAGAUAGCU | 0.914 |
| CUAUAUUGUAAGCUUUGGUGUUUGUUUAAUUAGCAAUAGGGAUGGUAGGAUUCAAAUGUGUGUCAUUUAGAAGUGGAAGCUAUUAGCACCAAUGACAUAAAUACAUACAA | 1.33 |
| UCAGGCCAGAGGACAACAGGCUGGCGUUUUGUUGGGAACUGAAGAGGAAUCUGUUGAACACAGCGACCAGAUGACCUUCCAUUUCACCGGCGGCAGCAGUUUCAGCGUGC | 0.182 |
| AUAAAAUUUAGUUCUUAGCUCUUGAACAGAAGCCUAAAAUUCCUGGUUCUCUCAGGGCUUCGCCUUCAAGGGUUCUGGAGGAGGGAAGGGUCUGCAGGUUCCAUGGGUGA | 0.736 |
| GCUGCAGUCCUAAAGUCUCAAGCUAGAGGGUGGGGGCCACGGAAGGAAGGCAGCCUUUCAGGUAGCAAGAUUAAAUAUUGCUGUUGCCAAAUAGUAUUUGAAAUAAUACC | 0.477 |
| GUAUUCAUUCCCUUUAAAAUGAAACAUUCCUGGUUUAUUUGUCCAUGCCUCUAGCCUGGGUGAGUGAAGCUGGCUGUGUUGGCCUGGGUGAUUGUUCAGGUUGUAGAAUG | 0.46 |

Set 2
Target: Fragile X messenger ribonucleoprotein 1, C-terminal low-complexity region (Fmr1, Mus musculus, UniProt P35922)
Technique: RNA Bind-n-Seq
Molecule type: RNA
Medium: in vitro
Concentration: 200 nM
Notes: whole 134-nt RNA, ends assumed
Together with: 150 mM KCl
Baseline: input library
Reading: higher = stronger binding
Constant ends, left off below: GGGAGUUCUACAGUCCGACGAUC … UGGAAUUCUCGGGUGUCAAGG
| Strand | log2 enrichment |
| --- | --- |
| CUCAAGUCCUGUGCUACACAUCGUAUGUACCGAAUCGGUUUGGUUUGGUUUGGAAAGUAUUAUGUUACGCCGUUCGGAUCUGCACUUCCA | -0.303 |
| UCAAGUCCUGUGCUACACAUCGUAUGUACCGAAUCGGGCCGGGGCCGGGGCCGGGAAAGUAUUAUGUUACGCCGUUCGGAUCUGCACUUC | -0.378 |
| GCAGGAAGUAAAAACAAAUGGAAAUGCUUCGGAUAGUGGCAGGGGUGGGGGUUGCUAAGGAAAGGGUGGUAUGGGAGUGGGUAAAGAGUU | 0.0398 |
| ACCGUGCAGGUGGGCAUCUUUGGGAAGUGGGGCAAGGGGGGGAUAGGGAGGGGGGUAACACUUUGGGAACAGGUGGUCCCAGGUCGUUUC | 0.791 |
| UCCUGUGCUACACAUCGUAUGUACCGAAUCAAACCCCCCCAAAUUUUUUUAAAUUUAAAAAAGUAUUAUGUUACGCCGUUCGGAUCUGCA | 0.49 |
| UACUCUUUGAUUUAUCAAAUGUGUUCAGUUGGAGAAUCGUCCUCAGGAAAGGCUUCAAGGAGCCUUGCACAGCAUAUUCCUGGCCCUGGU | -1 |
| UGGGAGGUGGAUUUUGUUUAUUUUUUUAGCUCAUUUCCAGGGGUGGGAAUUUUUUUUUAAUAUGUGUCAUGAAUAAAGUUGUUUGUGAAA | 0.614 |
| CAAGUCCUGUGCUACACAUCGUAUGUACCGAAUCGGUUUUUUUGGAAAAAGGAGGAAAGUAUUAUGUUACGCCGUUCGGAUCUGCACUUC | -0.699 |
| UCAAGUCCUGUGCUACACAUCGUAUGUACCGAAUCGGCCCGGCCCGGGGCCCGGGAAAGUAUUAUGUUACGCCGUUCGGAUCUGCACUUC | -0.301 |

Set 3
Target: Sal-like protein 4, full length isoform A (SALL4, Homo sapiens, UniProt Q9UJQ4, residues 1-1053)
Chain of UniProt Q9UJQ4 (whole entry, looked up): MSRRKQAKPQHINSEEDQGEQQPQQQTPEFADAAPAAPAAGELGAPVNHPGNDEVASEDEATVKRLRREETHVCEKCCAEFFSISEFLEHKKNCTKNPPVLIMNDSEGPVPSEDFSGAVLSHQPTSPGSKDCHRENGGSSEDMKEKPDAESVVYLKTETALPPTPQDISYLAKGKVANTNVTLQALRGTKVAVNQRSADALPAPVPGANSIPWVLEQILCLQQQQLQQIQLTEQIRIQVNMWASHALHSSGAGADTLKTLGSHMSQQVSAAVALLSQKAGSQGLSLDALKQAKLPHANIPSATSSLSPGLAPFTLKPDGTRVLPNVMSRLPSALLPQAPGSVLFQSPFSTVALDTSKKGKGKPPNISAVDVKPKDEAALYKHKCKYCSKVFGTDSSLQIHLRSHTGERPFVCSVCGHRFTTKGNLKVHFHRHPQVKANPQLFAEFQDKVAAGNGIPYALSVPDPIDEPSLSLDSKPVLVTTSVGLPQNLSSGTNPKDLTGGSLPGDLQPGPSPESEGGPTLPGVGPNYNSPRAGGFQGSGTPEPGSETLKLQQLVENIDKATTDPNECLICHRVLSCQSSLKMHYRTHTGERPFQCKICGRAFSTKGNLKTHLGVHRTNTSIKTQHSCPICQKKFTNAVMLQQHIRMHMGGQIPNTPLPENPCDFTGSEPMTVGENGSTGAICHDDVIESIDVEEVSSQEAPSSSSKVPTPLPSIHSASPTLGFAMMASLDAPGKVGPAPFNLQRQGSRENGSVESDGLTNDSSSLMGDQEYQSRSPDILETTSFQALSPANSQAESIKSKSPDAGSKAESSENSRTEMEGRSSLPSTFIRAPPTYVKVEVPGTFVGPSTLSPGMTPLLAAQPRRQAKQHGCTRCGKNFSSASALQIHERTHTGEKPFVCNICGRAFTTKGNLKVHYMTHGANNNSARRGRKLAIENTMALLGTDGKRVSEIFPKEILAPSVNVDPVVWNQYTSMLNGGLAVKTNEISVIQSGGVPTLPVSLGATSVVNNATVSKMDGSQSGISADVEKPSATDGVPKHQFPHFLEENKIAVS
Technique: universal PBM
Molecule type: double-stranded DNA, one strand shown
Medium: in vitro
Concentration: 600 nM
Notes: 8-mer, flanks averaged, mean of replicates
Reading: higher = stronger binding
| Strand | E-score |
| --- | --- |
| CGTAATAG | 0.222 |
| CGTTAGTA | 0.129 |
| CAATATGG | 0.187 |
| CCCGTAGC | -0.332 |
| ACTTTTAG | 0.109 |
| AGACTCAA | 0.0541 |
| GGTATGGA | -0.00297 |
| GTATGACA | 0.249 |
| GTAACCGA | -0.0782 |
| AACCAGGG | -0.168 |
| GACCTCGA | -0.0973 |
| AGTGAATC | 0.0851 |
| GCTCAAGA | -0.106 |
| GATGGCGC | -0.302 |
| CTAGCCGC | -0.319 |
| CTGCATTA | -0.0199 |

Further values, each from its own experiment
| Substance | target | test | test system | conditions | scale | measurement | result |
| --- | --- | --- | --- | --- | --- | --- | --- |
| PhoQ, residues 284 288 289 292 302 303 SSTLLI | PhoP, residues 12 14 15 18 19 NHFRA (Escherichia coli, UniProt P23836) | Sort-seq, measured: YFP reporter | E. coli | PhoQ-PhoP variant library, together with: 10 µM Mg2+ | baseline: high Mg2+ state, higher = stronger signaling | fold induction | 1.54 |

For quick reference, copied from above (set 1):
| Strand | RBNS enrichment (R) |
| --- | --- |
| AGAGCAUCGAGGAUAGUAGCUUAAGGUUGCUGAGCUGGAAGCUGUGGGGGAAGAAGUGGAAACUAUGUCCAGUGAACUUUUCCAGUAAAUGAAGCAAGCACUAAAGUACU | 0.549 |
| AAAUCCCAUUCCAGUGUUACUUUCUGUGAAUGCAGUACCAUAUUCUCAUUUUCAAUGACAUUUCAACCACAGGCAGAAAAGACUGUUUACUCCUUGACCCAAAGAUUAAA | 0.272 |
| AUACGAGUGGUGAGAGAGGGCAUCCCUGUCUUGUGCCAGUUUUCAAAGGGAAUGCUUCCAGUUUUUGCCCAUUCAGUAUGAUAUUGGCUGUGGGUUUGUCAUAGAUAGCU | 0.914 |
